{"data": "Published values pooled from the literature", "note": "Several values in a cell are separate wells, animals, samples, runs or records. ± gives the spread as reported."}
{"SMILES": "CCn1cc(C(=O)N2CCOCC2)c(=O)c2cc(NC3Cc4ccccc4C3)cnc21", "test system": "human, fed", "conditions": "oral suspension, 2000 mg single dose, arithmetic mean", "endpoint": "half-life", "result": "5.71 h"}
{"SMILES": "O=C(O)c1cc(O)c2c(c1)C(=O)c1cccc(O[C@@H]3O[C@H](CO)[C@@H](O)[C@H](O)[C@H]3O)c1C2=O", "target or system": "HK-2 co-cultured with HepaRG", "assay": "MTT", "conditions": "66.67 µM, 48 h", "how to read": "baseline: untreated control", "endpoint": "cell viability", "result": "72.4 ± 2.57%"}
{"SMILES": "C[C@@H](Nc1cc(F)cc(F)c1)c1cc(C(=O)N(C)C)cc2c(=O)cc(N3CCOCC3)oc12", "assay": "measured: Chills", "test system": "advanced solid tumour patients", "conditions": "oral, dose not given, dose finding", "endpoint": "patients discontinuing for AE", "result": "0%"}
{"SMILES": "Cc1c(-c2ccc(N3CCc4cccc(C(=O)Nc5nc6ccccc6s5)c4C3)nc2C(=O)O)cnn1CC12CC3(C)CC(C)(C1)CC(OCCNCC[C@H](O)CO)(C3)C2", "test system": "anaesthetized male beagle dog", "conditions": "iv infusion, 0.3 mg/kg/min, 10 min", "endpoint": "plasma concentration", "result": "133 ng/mL and 422 ng/mL"}
{"SMILES": "N[C@@H](C[18F])C(=O)O", "assay": "radio-TLC", "test system": "mouse serum", "conditions": "2 h", "endpoint": "radiochemical purity", "result": "≥ 93%"}
{"SMILES": "Cc1cc(C(=O)NC(C)(C)COc2cccc3c2C(N)=NS(=O)(=O)N3)cc(C)n1", "test system": "Sprague-Dawley rat, male, plasma", "conditions": "oral, 100 mg/kg", "endpoint": "dose-normalised AUC(0-last)", "result": "0.97 ng·h/mL/mg/kg"}
{"SMILES": "Cc1cc(Nc2ccc(S(F)(F)(F)(F)F)cc2)n2nc(C(C)(F)F)nc2n1", "test system": "Plasmodium vivax malaria patients", "conditions": "oral, 600 mg", "endpoint": "adverse event Chills", "result": "0%"}
{"SMILES": "NC1(C(=O)N[C@@H](CCO)c2ccc(Cl)cc2)CCN(c2nc[nH]c3nccc2-3)CC1", "test system": "metastatic CRPC patients", "conditions": "320 mg b.i.d., grade 3 to 4, treatment-related, together with: enzalutamide 160 mg daily", "endpoint": "incidence of Dysuria", "result": "0%"}
{"SMILES": "CNC(=O)c1cccc(-c2ccc([C@@H](O)[C@H]3O[C@H](CO)[C@@H](O)[C@H](O)[C@@H]3O)c(C)c2)c1", "test system": "male Sprague-Dawley rat, plasma", "conditions": "intravenous, 3 mg/kg, group mean", "endpoint": "Vss", "result": "0.741 L/kg"}
{"SMILES": "N#Cc1ccn2c(-c3ccncc3)c(-c3ccc(F)cc3)nc2c1", "test system": "CD1 mouse female", "conditions": "oral, 25 mg/kg", "endpoint": "MRT", "result": "14 h"}
{"SMILES": "COc1c(O)c(C)cc2c1C(=O)c1c(O)cccc1C2=O", "target or system": "HK-2 co-cultured with HepaRG", "assay": "MTT", "conditions": "66.67 µM, 48 h", "how to read": "baseline: untreated control", "endpoint": "viability", "result": "73.6 ± 6.94%"}
{"SMILES": "CN(CC#N)C(=O)C[C@H](Nc1nc2ccccc2[nH]1)c1cccc(C(F)(F)F)c1", "test system": "human", "conditions": "intravenous infusion, 4 mg/kg, 1 mg/mL formulation", "endpoint": "apparent volume of distribution", "result": "80.4 ± 12.1 L"}
{"SMILES": "O=C(Nc1nc2cccc(-c3ccc(CN4CCS(=O)(=O)CC4)cc3)n2n1)C1CC1", "assay": "measured: hypertension", "test system": "human rheumatoid arthritis patients", "conditions": "oral, 300 mg once daily, 4 weeks, regardless of relatedness", "endpoint": "treatment-emergent adverse events", "result": "0%"}
{"SMILES": "CCCCCN1C[C@H](O)[C@@H](O)[C@H](O)[C@@H]1CO", "assay": "LC-MS/MS", "test system": "Hexb-/- mice, total, brain", "conditions": "30 mg/kg/day", "endpoint": "mean brain concentration", "result": "40 ng/g"}
{"SMILES": "COc1cc(Nc2ncc3c(n2)-c2ccc(Cl)cc2C(c2c(F)cccc2OC)=NC3)ccc1C(=O)O", "assay": "measured: Cough, all grades", "test system": "cancer patients, phase 1/2", "conditions": "oral, dose not given, together with: pembrolizumab", "endpoint": "patients with adverse event", "result": "21%"}
{"SMILES": "N#Cc1ccc2c(c1)[C@H]1CCCN(C(=O)c3ccc4[nH]cnc4c3)[C@H]1C2", "test system": "human, male", "conditions": "40 mg, day 15", "endpoint": "androstenedione level", "result": "8 nmol/L"}
{"SMILES": "C=CC(=O)Nc1cc(Nc2nccc(-c3cn(C4CC4)c4ccccc34)n2)c(OC)cc1N(C)CCN(C)C", "test system": "BALB/c nude mice, LU0387 xenograft, blood", "conditions": "oral, 40 mg/kg", "endpoint": "RDW-CV", "result": "18.3 ± 0.259%"}
{"SMILES": "C=CCN1CC(=O)N2[C@@H](Cc3ccc(O)cc3F)C(=O)N(Cc3cccc(N4CC(N5CCN(CC)CC5)C4)n3)C[C@@H]2N1C(=O)NCc1ccccc1", "test system": "advanced solid tumour patients", "conditions": "oral, 30 mg twice daily, any grade, dose-escalation", "endpoint": "treatment-related decreased appetite", "result": "0%"}
{"SMILES": "Cl.[2H]C([2H])([2H])CC(=O)c1cnc(NC(=O)C2CC2)cc1Nc1cccc(-c2ncn(C([2H])([2H])[2H])n2)c1OC", "test system": "human, fed, plasma", "conditions": "oral, 25 mg, single dose, liquid formulation", "endpoint": "Vz/F", "result": "156 L"}
{"note": "A few entries again:"}
{"SMILES": "NC1(C(=O)N[C@@H](CCO)c2ccc(Cl)cc2)CCN(c2nc[nH]c3nccc2-3)CC1", "test system": "metastatic CRPC patients", "conditions": "320 mg b.i.d., grade 3 to 4, treatment-related, together with: enzalutamide 160 mg daily", "endpoint": "incidence of Dysuria", "result": "0%"}
{"SMILES": "CNC(=O)c1cccc(-c2ccc([C@@H](O)[C@H]3O[C@H](CO)[C@@H](O)[C@H](O)[C@@H]3O)c(C)c2)c1", "test system": "male Sprague-Dawley rat, plasma", "conditions": "intravenous, 3 mg/kg, group mean", "endpoint": "Vss", "result": "0.741 L/kg"}
